Experimental data collected from several papers.
A part holds a random share of what one study measured. Substitutions count along the parent as printed.
Sequence of UniProt P61075 (whole entry, looked up): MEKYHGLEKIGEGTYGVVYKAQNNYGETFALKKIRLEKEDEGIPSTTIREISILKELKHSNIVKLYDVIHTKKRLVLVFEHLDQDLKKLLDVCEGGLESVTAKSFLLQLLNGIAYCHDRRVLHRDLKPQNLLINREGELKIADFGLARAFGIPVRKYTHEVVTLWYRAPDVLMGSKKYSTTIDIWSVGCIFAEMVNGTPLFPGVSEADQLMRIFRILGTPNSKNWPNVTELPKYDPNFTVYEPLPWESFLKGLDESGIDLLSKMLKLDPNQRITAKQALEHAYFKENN
Sequence of UniProt P62344 (whole entry, looked up): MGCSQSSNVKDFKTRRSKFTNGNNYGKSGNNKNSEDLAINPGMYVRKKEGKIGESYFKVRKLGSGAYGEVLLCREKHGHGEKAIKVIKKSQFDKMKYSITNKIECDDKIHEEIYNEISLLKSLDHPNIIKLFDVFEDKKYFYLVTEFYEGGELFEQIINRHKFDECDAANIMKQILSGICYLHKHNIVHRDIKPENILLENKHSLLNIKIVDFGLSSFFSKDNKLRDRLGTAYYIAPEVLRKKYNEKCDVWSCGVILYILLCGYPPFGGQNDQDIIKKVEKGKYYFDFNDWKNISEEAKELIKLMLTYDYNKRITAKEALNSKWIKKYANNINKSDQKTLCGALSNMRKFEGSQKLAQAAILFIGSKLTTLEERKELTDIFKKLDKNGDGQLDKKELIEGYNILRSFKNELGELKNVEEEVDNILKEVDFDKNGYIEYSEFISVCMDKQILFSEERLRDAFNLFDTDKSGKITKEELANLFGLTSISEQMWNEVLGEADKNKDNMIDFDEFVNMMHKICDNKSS
Sequence of UniProt P0C1S8 (whole entry, looked up): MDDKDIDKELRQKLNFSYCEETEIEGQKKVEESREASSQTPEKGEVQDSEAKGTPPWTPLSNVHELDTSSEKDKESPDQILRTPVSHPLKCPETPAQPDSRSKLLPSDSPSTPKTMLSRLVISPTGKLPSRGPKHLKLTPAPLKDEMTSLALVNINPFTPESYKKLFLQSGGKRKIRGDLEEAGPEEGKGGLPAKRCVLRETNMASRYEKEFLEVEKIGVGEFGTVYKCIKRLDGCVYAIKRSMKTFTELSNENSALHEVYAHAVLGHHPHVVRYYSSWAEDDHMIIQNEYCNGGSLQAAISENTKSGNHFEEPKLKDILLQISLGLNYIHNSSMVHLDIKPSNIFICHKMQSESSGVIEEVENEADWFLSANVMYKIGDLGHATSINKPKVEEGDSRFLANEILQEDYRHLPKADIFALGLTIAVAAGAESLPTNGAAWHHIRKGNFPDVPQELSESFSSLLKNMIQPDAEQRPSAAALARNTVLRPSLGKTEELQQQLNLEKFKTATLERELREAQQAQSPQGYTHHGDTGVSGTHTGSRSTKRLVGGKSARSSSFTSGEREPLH

Series 1
Target: CCND1, cyclin fold, Cln2 fusion (human)
Technique: yeast growth competition, sequencing
Sample: yeast
Notes: strong parent motif
Relative to: not given
Direction: higher = stronger binding
Starting sequence: viral docking peptide; YKVKRRLVFGADD; partner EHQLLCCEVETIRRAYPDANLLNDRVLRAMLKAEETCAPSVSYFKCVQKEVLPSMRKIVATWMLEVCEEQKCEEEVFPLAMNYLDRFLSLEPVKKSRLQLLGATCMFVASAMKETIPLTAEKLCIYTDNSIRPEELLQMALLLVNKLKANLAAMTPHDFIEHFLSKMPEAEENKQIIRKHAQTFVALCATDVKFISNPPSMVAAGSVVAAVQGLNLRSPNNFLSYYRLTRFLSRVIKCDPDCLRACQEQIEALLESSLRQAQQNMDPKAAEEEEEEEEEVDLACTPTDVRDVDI
Change | normalised enrichment score
R6G | -0.179
R5A | 0.524
L7R | -0.11
V8I | 1.81
D12M | 1.2
V8G | 0.106
R6Y | 0.522
F9V | -0.0538

Series 2
Target: HLA class I histocompatibility antigen, C alpha chain, allele C*04:01 (Homo sapiens, UniProt P10321)
Effect on: peptide-MHC binding
Molecule type: peptide
Tested at: concentration not given
Molecule | binding
RSDEYVAYY | inactive
LFPELDCFF | inactive
YYNAFHWAI | inactive
RRRRRRAAL | inactive
FPYTGDPPY | inactive
LLDEPTNHL | inactive
RAMRMVYYL | inactive
FVAATGRPL | inactive

Further values, each from its own experiment
Structure (SMILES) | tested on | effect on | technique | tested at | added | quantity | value
CN(C)CC#Cc1ccc(OCCCc2sc(N3CCc4cccc(C(=O)Nc5nc6ccccc6s5)c4C3)nc2C(=O)O)c(F)c1 | CRK2 (Plasmodium falciparum, UniProt P61075) | cell-free assay | competition with immobilised ligand | 1 µM | – | remaining binding | 100%
CC[C@H](C)c1nc2cc(Nc3ccnc4ccc(S(=O)(=O)C(C)C)cc34)ccc2s1 | L929 | necroptosis protection | CCK-8 | 0.313 µM | TNF-α plus zVAD | viability | 27.6%
O=c1nc(-c2ccccn2)sc2ccccc12 | CDPK1 (Plasmodium falciparum, UniProt P62344) | cell-free assay | competition with immobilised ligand | 1 µM | – | remaining binding | 77%
Cn1cncc1[C@@](O)(COc1ccc(C#N)cc1-c1ccc(OC(F)(F)F)cc1)c1ccc(C#N)cc1 | WEE2 (Homo sapiens, UniProt P0C1S8) | cell-free assay | competition with immobilised ligand | 1 µM | – | remaining binding | 100%

A few entries again (series 2):
Molecule | binding
RSDEYVAYY | inactive
FVAATGRPL | inactive
LFPELDCFF | inactive
